# Results gathered from unrelated publications.
# Lines come from different studies, so protocols differ. Values joined by “and” are separate records of one study, mostly repeats; a detail may differ. ± gives the spread as reported.
Substance,tested on,assay,test system,conditions,how to read,endpoint,result
Peginesatide,UT7/EPO,"tyrosine phosphorylation, LC-MS/MS phosphoproteomics, GluC, measured: GAB1 tyrosine 317",,"10 nM, 15 min, added: 10 U/mL EPO",baseline: vehicle,phosphorylation level,14.2 fold
difelikefalin,,,Japanese haemodialysis patients with pruritus,"intravenous, 0.5 µg/kg, 8 weeks",,PGIC much worse,0%
GSGAGPETLV,human MAGI1-2/6 PDZ construct (MBP fusion),surface plasmon resonance,peptide,concentration not given,higher = stronger binding,normalised SPR binding response,12.6 normalised RU
semaglutide,,,"Wistar rat, male, diet-induced obese","subcutaneous, increasing doses once daily, 45 days",baseline: vehicle,cumulative food intake reduction,-19.9%
hemoglobin alpha,,co-immunoprecipitation,human RBC cytosol,"DMTMM crosslinker, unit not given, added: Band 3 peptide 1-56 bait",baseline: negative control,co-IP enrichment,3280
colistin,Pseudomonas aeruginosa,broth microdilution,clinical isolate RKI-No_484/15,,,MIC,1 µg/mL
calcium,,"ion current, two-electrode voltage clamp",Xenopus oocytes,"10 mM, 80 mV, added: niflumic acid present",,desensitization time constant,12.6 s and 7.8 s and 19.6 s and 6.67 s
human alpha-1-acid glycoprotein 1,,co-immunoprecipitation,human RBC membrane,"DMTMM crosslinker, unit not given, added: Band 3 peptide 1-56 bait",baseline: negative control,co-IP enrichment,0
maraviroc,,"ELISA, measured: sRAGE","mouse, HIV-infected, serum","intraperitoneal, 120 mg/kg twice daily, week 3 post infection",,serum level,91 ± 7.34 ng/mL
human serum albumin,,co-immunoprecipitation,human RBC cytosol,"DMTMM crosslinker, unit not given, added: Band 3 peptide 1-56 bait",baseline: negative control,co-IP enrichment,64.8
cotadutide,,,"ob/ob mouse, AMLN diet NASH model","dose not given, terminal",,plasma cholesterol,305 ± 32 mg/dL
QSARYRDTEL,human MAGI1-3/6 PDZ construct (MBP fusion),surface plasmon resonance,peptide,concentration not given,higher = stronger binding,normalised SPR binding response,0 normalised RU
heparin sodium,,,human,"intravenous infusion, 8 IU/kg/h, day 1 to 6",baseline: baseline,time to Emax of ACT ratio,14 h

# Excerpt of the above:
Substance,tested on,assay,test system,conditions,how to read,endpoint,result
human serum albumin,,co-immunoprecipitation,human RBC cytosol,"DMTMM crosslinker, unit not given, added: Band 3 peptide 1-56 bait",baseline: negative control,co-IP enrichment,64.8
